# Published values collected from several papers.
# Numbered parts are unrelated; each lists some results of a single study. Substitutions count along the parent as printed.
# Sequence of UniProt O15294 (whole entry, looked up): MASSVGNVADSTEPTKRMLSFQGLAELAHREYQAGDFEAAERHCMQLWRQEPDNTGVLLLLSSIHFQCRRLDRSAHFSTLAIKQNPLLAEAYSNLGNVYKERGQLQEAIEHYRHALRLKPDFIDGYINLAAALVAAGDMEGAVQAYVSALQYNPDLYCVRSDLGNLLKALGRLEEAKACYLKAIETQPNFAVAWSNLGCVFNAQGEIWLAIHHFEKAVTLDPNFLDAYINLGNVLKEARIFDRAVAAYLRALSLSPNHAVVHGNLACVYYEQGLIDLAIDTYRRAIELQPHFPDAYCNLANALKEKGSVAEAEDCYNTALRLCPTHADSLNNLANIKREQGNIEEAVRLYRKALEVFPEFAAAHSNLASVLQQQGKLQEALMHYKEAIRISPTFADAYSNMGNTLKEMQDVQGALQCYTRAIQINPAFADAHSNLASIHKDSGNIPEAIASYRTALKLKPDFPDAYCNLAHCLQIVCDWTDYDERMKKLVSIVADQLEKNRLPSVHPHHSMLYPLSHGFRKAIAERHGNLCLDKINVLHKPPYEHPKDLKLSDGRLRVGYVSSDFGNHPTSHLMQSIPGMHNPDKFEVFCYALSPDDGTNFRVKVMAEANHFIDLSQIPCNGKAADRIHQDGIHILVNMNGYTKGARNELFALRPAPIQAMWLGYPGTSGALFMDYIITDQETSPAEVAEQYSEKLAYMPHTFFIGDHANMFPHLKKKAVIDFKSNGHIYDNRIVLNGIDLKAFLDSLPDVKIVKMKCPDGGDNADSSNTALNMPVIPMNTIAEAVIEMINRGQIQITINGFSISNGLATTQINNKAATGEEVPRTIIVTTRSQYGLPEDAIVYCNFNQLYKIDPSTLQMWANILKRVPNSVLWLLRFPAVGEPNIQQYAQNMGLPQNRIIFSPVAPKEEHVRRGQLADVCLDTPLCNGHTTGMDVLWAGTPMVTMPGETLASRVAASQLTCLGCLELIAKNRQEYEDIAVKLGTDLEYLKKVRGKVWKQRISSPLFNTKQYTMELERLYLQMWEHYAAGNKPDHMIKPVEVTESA
# Sequence of UniProt O23661 (whole entry, looked up): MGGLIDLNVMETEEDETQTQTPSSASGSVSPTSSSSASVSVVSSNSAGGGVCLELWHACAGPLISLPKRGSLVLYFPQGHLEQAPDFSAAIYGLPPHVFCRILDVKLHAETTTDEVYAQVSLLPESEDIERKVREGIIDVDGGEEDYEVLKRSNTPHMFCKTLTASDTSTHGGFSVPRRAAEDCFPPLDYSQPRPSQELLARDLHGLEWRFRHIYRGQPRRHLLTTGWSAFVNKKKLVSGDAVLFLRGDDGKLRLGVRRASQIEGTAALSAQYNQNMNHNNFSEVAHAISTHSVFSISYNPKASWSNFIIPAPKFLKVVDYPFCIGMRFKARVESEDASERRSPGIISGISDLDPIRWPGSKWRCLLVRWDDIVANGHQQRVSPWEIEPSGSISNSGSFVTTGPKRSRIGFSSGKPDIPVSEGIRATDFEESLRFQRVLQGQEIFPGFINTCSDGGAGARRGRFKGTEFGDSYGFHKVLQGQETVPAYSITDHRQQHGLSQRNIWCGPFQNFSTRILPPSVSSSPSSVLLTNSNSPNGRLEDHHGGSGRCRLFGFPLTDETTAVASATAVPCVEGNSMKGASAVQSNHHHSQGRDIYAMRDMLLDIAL

# Set 1 — technique: RNA Bind-n-Seq; form: RNA; matrix: in vitro; tested at: 20 nM; setting: 6-mer, flanks averaged, single round; with: 150 mM LiCl; baseline: input library; direction: higher = stronger binding
# Target: TAR DNA-binding protein 43, full length, His tag (TARDBP, Homo sapiens, UniProt Q13148, residues 1-414)
Sequence,6-mer enrichment (R)
CACGCU,0.875
UGAUGA,1.01
AAUAGA,0.863
AUGAGC,0.944
GGGGAU,1.21
UACCAC,0.893
GCUACC,0.891
UCGUCU,0.937

# Set 2 — target: JUNB, bZIP domain (human); technique: DHFR protein complementation; matrix: yeast; baseline: wild-type JUN-FOS pair; direction: higher = stronger binding
# Setting: single substitutions, most at no-binding floor
# Parent: JUN, bZIP domain (human); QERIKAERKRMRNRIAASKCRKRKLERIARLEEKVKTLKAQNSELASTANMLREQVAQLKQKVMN; partner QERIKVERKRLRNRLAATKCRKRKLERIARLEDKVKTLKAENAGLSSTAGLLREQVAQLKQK
Change,binding fitness [natural log]
I28D,-1.38
L52P,-1.49
E54A,-1.22
L31Q,-1.47
L45N,-1.52
N42L,-1.47
T48R,-1.23
S43M,-1.05

# Single results of other studies
# B1: IAA33 (Arabidopsis thaliana, UniProt Q9FKM7); chain MNSFEPQSQDSLQRRFHQDNSTTQQPRDTTTPFIPKPASKNHNNSNSSSGAAGRSFQGFGLNVEDDLVSSVVPPVTVVLEGRSICQRISLDKHGSYQSLASALRQMFVDGADSTDDLDLSNAIPGHLIAYEDMENDLLLAGDLTWKDFVRVAKRIRILPVKGNTRQVKRNE
Sequence,target or system,test,system,conditions,scale,endpoint,value
QDHTHFFHVVTNHHH,"OGT (Homo sapiens, UniProt O15294)","binding, phage display NGS",peptide,concentration not given,baseline: input library,enrichment fold change,10.9
B1 (IAA33),"ETT (Arabidopsis thaliana, UniProt O23661)",two-hybrid,,,"baseline: out of 4 tests, higher = firmer interaction",positive tests,1

# For quick reference, copied from above (set 1):
Sequence,6-mer enrichment (R)
CACGCU,0.875
UGAUGA,1.01
UACCAC,0.893
